# Measured values collected from several papers.
# Each numbered part is a random draw from the data of one study; scales do not carry over between parts.

# Series 1
# Target: Histone acetyltransferase KAT6A, winged helix 1, GST fusion (KAT6A, Homo sapiens, UniProt Q92794, residues 1-85)
# Method: protein binding microarray
# Form: double-stranded DNA, one strand shown
# Sample: in vitro
# Tested at: not given
# Setting: 8-mer, flanks averaged, mean of 2 arrays, mostly near background
# Baseline: not given
# Reading: higher = stronger binding
# Construct (chain): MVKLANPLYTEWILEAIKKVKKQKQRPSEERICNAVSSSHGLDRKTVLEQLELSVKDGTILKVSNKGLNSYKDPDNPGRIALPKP
Oligonucleotide,E-score
CCCCAAAG,-0.271
AACTCCCA,-0.108
ACTTGGAT,-0.112
AGCAGGGG,-0.147
ACCACCTG,-0.132
CCCCTGAA,0.0142
CAAGCGCG,0.379
ACCAATCC,0.043
GGAGTCCA,-0.0672
GGAACATA,-0.0646
AGGACATC,0.0649
CCGTTCAG,0.156
AACCAAGC,-0.0158
CAAGGAAC,-0.0571
ACATCGAC,-0.00751
AAAGCCAA,-0.118

# Series 2
# Target: Interferon regulatory factor 7, full length, phosphomimetic (IRF7, Homo sapiens, UniProt Q92985, residues 1-503, S471D/S472D/S475D/S476D/S477D/S483D/S484D/S487D)
# Sequence of UniProt Q92985 (whole entry, unmodified, looked up): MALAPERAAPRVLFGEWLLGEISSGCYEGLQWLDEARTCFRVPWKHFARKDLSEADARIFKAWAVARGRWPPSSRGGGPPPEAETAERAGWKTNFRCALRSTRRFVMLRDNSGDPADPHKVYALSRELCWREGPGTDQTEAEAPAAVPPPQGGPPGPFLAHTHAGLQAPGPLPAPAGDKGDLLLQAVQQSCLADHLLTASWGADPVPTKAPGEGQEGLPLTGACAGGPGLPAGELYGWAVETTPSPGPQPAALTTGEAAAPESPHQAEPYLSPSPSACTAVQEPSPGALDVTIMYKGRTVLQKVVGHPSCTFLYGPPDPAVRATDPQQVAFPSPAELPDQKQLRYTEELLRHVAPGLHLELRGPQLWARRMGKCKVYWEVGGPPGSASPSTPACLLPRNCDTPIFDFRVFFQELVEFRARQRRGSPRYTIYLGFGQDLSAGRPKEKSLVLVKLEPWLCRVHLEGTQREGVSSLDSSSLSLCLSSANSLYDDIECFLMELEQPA
# Method: protein-binding microarray
# Form: double-stranded DNA, one strand shown
# Sample: in vitro
# Tested at: 2200 nM top
# Setting: 60-bp whole probe
# Together with: salmon DNA 0.4 mg/ml
# Baseline: random background probes
# Reading: higher = stronger binding
# Shared flanks, not repeated: GCCTAGCAC … GTCTTGATTCGCTTGACGCTGCTG
Oligonucleotide,fitted relative affinity [z-score]
GACGATATCAATATCGAGACGTGCTAG,0.161
TTAGGTTTCCTCATCCTTTAGTGCTAG,1.66
GACGATTTTAGACTGGAGACGTGCTAG,0.00559
TTAGATCTCAGTTTCGTTTAGTGCTAG,6.65
TTTGGTTTCCTTATCCTTTAGTGCTAG,3.61
TCCATTTTGTGTTTTCATTTGTGCTAG,3.6
TTGTATCTGGGTTCCCCCCCGTGCTAG,0.171
GACGGTCTCGGTTTCAGGACGTGCTAG,2.08
TCAGATATAGGATAACGAGCCGTGCTA,-0.527
GACGGTATCCCTTTCCTGACGTGCTAG,1.7
CTAGGTTTCCTTTCCCTTTAGTGCTAG,5.12
GACGGTCTGGACTTTCGGGACGTGCTA,2.09
GACGGTTTCGCTTTCGGGACGTGCTAG,13.4
TTAGATAGCAGACTGGATTAGTGCTAG,-0.423
TTAGGTATACTTTTCCTTTAGTGCTAG,2.06
TTTCATTTTTTTTCATCATTGTGCTAG,6.86
GACGGGATCGACACTGGGGACGTGCTA,-0.576
GACGGTCGCGGTCTCGGGACGTGCTAG,-0.556
GACGGACTGGGTTTCAGGACGTGCTAG,-0.412
TCAAAGTTCTTTTTTTCACTGTGCTAG,0.679
TTAGGACTTCTTTTCCTTTAGTGCTAG,1.11
TTAGGACTGGTTTTCGGTTAGTGCTAG,4.67
TTAGGTATCGTCTATCGGTTAGTGCTA,0.513
TTTCTGATCCATTTTGGTTTGTGCTAG,5.46
GAAGCTTCTTTTTTATTCTAGTGCTAG,0.562

# Series 3
# Target: Phosphate system positive regulatory protein PHO4, full length, GST-tagged (PHO4, Saccharomyces cerevisiae, UniProt P07270, residues 1-312)
# Method: competition protein-binding microarray
# Form: double-stranded DNA, one strand shown
# Sample: in vitro
# Tested at: 2 µM
# Setting: whole 60-bp probe, lowest competitor level
# Together with: Cbf1 competitor, 0.05 µM
# Reading: higher = stronger binding
# Shared flanks, not repeated: … GTCTTGATTCGCTTGACGCTGCTG
# Construct (chain): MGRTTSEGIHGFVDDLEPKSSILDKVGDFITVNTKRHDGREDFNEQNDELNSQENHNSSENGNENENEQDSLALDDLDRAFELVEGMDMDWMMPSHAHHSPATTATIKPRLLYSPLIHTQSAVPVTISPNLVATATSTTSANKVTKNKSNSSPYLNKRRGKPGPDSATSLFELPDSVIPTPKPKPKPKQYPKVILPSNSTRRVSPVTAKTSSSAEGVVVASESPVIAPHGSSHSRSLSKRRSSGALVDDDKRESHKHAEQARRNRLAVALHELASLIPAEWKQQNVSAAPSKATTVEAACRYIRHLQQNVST
Oligonucleotide,fluorescence intensity [a.u.]
GTCTTGTCTCATTTTCACGTGCAGTTCCCCACTTCA,13200
GATATCACCAGCTGGCACGTCAGTGTCTTGACCAAT,5200
AAAGCGGTAATTTGCACAGTGGGTGCAGATATCTAT,4590
CACTTTTTAAACCATCACGGCCTCTGACGTAATCGG,4590
CGGCTGGGTCGGGCCCACGTGGACCCGGCGGCAAGC,17700
TTGCATAGTCAGTGTGGCGTGCAAACTCCACAGAAT,6950
ATTCTATTGCAGAATGTTGTGATATTTCCAAGGTCT,4450
TCTCGAAACAATTGCAATGTGACGGTCTTGTTAGGC,4390
AGGATCTAATTCGTCTACGTGGCAAAGGTTTTCAAA,5800
CTAACGAAGGTTTGTCACTCCACTTACAAGCCAAGT,4070
TTCTGCGCAGAGAAAGGCGTGCAAAGTCCGTTTGAC,6870
CTTCTGTAAATTTGCCAAGTGGGTGGACGCGCCCCG,4380
AAAGCGGTAATTTGAATCGTGGGTGCAGATATCTAT,8200
TACTGGAGTATTCGTCACGTGCCAGTGTGGCCCTGT,17100
CAGCGAACCAAAGGCACCGTGAGTAGAGGTATGAGA,4810
AAGTTGCTTCTTTGCCACGTGTTCCATTGAAGATTG,18200
TGCGCAACAACTTGTCACGGAACTTTATGTCTAGAA,3350
CATGTATCTTATTGTTTCGTGATGGTGTAGATCCGG,6570
ATCCAGAACCCGTATCGCGTGCAAACAAAGAGATTT,7950
AAAAAGAAACTCCATCACGATGTAAGTACAAATGGT,8610
TAATTTTCAAACGACCACGCACCGCGAGAGAAAAGA,7420
AAAAATGTATACAGATCAGTCTGTATATAAATCATG,3760
TGCGCAACAACTTGACACGTGGGTGTATGTCTAGAA,20100

# Series 4
# Target: RNA binding protein fox-1 homolog 2, RRM domain, GST-SBP tag (RBFOX2, Homo sapiens, UniProt O43251-10, residues 100-194)
# Method: RNA Bind-n-Seq
# Form: RNA
# Sample: in vitro
# Tested at: 365 nM
# Setting: natural RNA segment, single round, ends assumed
# Baseline: no-protein control
# Reading: higher = stronger binding
# Shared flanks, not repeated: GGGAGUUCUACAGUCCGACGAUC … UGGAAUUCUCGGGUGCCAA
# Target sequence (chain): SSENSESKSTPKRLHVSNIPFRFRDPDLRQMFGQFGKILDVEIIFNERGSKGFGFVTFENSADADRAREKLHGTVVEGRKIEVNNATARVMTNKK
Oligonucleotide,RBNS enrichment (R)
UAUAUGGCUUUAUGUAGUAAUAGUUUUCUGACUAAAAUUUUGUUUUUUAUUUUUUGUAAUUUAUCUUUAACUCCUUUUGCAUUUUGUAUAACAGAUUGCUUAACUUCUAC,2.53
CUAAUUAAAUCGUGAAAUGGCAGUAUAGUCCAUGAUAUCUAAGGAGUUGGCAAGCUUAACAAAACCCAUUUUUUAUAAAUGUCCAUCCUCCUGCAUUUGUUGAUACCACU,0.552
GAGGACUUUAGAGUUAUAUUCCAACAUUCAACCUAUAGAUAAGAAACAUUUCUAACCUUUGGUUUGCUGACAUGUGUAGUAACUCUCUAAAAUGUCUGGAGAUGGGCAAG,0.575
CACAGCACUUUUGAUAUCAAGCAAGUGGCUUCCUUUUUGAGAUAUUAAAAAAAAAAAGAAAAGGAAAAAAGUAAAUGAAGCCCAACUACCUAACCCUUUCUUAUUUGUAU,1.47
CAUGGUAAGACCCUUUUUAAAACAAACUCCAGGCCCUUGGUUGCGGGUCGCUGGGUUAUUGGGGCAGCGCCGUGGUCGUCACUCAGUCGCUCUGCAUGCUCUCUGUCAUA,8.13
UGUUAGUCUCUGAGGAACAGUGCAACUCCUUCGAACAUGAUUUAGAAAGAGGGCAUUCAUGCAUAGAAUUCUGAGGCCUGGCACAACUCCCUGCCCAGGAGCACAGCUUG,0.76
CAUAGCUUCCGCCCUGCGCUGCCAGUCUCCUACCUGCAGGCCGAGCUGGCCUUCGAGGGCGAGGCCGCCUGCCGGGCCUUCCUAGAGCCCCUGGGCCUGGCCUACACGGG,0.467
UGAUCUCUGCAGUUUGCUCCAGCUACCAGUUUCUUUAGGCAGCUCUUUGUCCUCCCUCUGCCCAGAUUUUGAUGUAGUCUAAUUGACAUCCUUCUCUUCCCAACUUUUGU,0.391
GCAGCUGGUUUUGGCAUCCCCAGCAUCACCACUCUCCCAACCCAUCACCGUGACUGCAGUUCCUGCCCCCAUUCUCUUGGGGUCAGGGAGGGGCUGGGAAGGGCUACUGA,0.343
UACUUGAAACUGUUUAAGUACAAGUUGAACAAAAAUUAUGAAAAGGUAUAUUUGCUUCUCGGGAAAGCAAAGAAGCUGCUUUAAGAAAAUUAAAAGGGGACUAAAAAUUU,0.636
GGACCCAAGUUCUAGGUGCACACUUUUGCAAGCUUCCUACAAGCCCAGACUGACUUACACUAACCUAACUGCUCAGUGGCUGUCUAGAGACACUUUAGGAAGAUAAACUG,0.461
CACAAGAAGAGAAACAGUAACCUCACUUUGAAAAUUAGCUCCACUCAAGACUAGUCCACGAACGAGACCCGCCUUUUCUACACAGGAUCCAAGGUCACGAGAAGCAGCCA,0.34

# Single results of other studies
# Method: cross-linking MS
Substance,partner,test system,setting,endpoint,value
"HSP90AB1 (Homo sapiens, UniProt P08238)","HSPA1B (Homo sapiens, UniProt P0DMV9)",,hits only,interaction screen,cross-linked
"MRE11 (Homo sapiens, UniProt P49959)","RAD50 (Homo sapiens, UniProt Q92878)",,hits only,interaction screen,cross-linked
"RPN1 (Homo sapiens, UniProt P04843)","MLEC (Homo sapiens, UniProt Q14165)",,hits only,interaction screen,cross-linked
"COPB2 (Homo sapiens, UniProt P35606)","SCN3A (Homo sapiens, UniProt Q9NY46)",cell fractions,together with: DSSO,cross-linked residues,K386 to K1019

# Repeated from above (single results of other studies):
Substance,partner,test system,setting,endpoint,value
"HSP90AB1 (Homo sapiens, UniProt P08238)","HSPA1B (Homo sapiens, UniProt P0DMV9)",,hits only,interaction screen,cross-linked
"MRE11 (Homo sapiens, UniProt P49959)","RAD50 (Homo sapiens, UniProt Q92878)",,hits only,interaction screen,cross-linked
"RPN1 (Homo sapiens, UniProt P04843)","MLEC (Homo sapiens, UniProt Q14165)",,hits only,interaction screen,cross-linked
"COPB2 (Homo sapiens, UniProt P35606)","SCN3A (Homo sapiens, UniProt Q9NY46)",cell fractions,together with: DSSO,cross-linked residues,K386 to K1019
